Measured values pooled from the literature.
Each numbered part is a random draw from the data of one study; scales do not carry over between parts. Values joined by “and” are separate records of one study, mostly repeats; a detail may differ.
UniProt P53671, sequence (whole entry, looked up): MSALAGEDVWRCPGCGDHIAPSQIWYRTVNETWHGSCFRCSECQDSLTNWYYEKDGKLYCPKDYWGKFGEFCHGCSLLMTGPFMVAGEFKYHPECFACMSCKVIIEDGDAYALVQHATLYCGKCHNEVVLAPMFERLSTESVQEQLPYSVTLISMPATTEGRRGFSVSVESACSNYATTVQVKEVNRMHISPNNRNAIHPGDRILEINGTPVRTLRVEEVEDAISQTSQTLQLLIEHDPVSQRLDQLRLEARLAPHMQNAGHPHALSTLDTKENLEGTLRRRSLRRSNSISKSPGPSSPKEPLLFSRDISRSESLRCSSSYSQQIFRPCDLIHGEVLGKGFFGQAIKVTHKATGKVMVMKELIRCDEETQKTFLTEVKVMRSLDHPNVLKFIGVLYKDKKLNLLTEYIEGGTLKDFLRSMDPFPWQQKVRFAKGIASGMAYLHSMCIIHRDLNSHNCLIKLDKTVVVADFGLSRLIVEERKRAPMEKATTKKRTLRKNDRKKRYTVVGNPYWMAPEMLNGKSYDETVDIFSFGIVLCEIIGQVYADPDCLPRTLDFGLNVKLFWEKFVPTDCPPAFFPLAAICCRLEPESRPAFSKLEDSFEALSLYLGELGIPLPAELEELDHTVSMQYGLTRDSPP
UniProt Q13882, sequence (whole entry, looked up): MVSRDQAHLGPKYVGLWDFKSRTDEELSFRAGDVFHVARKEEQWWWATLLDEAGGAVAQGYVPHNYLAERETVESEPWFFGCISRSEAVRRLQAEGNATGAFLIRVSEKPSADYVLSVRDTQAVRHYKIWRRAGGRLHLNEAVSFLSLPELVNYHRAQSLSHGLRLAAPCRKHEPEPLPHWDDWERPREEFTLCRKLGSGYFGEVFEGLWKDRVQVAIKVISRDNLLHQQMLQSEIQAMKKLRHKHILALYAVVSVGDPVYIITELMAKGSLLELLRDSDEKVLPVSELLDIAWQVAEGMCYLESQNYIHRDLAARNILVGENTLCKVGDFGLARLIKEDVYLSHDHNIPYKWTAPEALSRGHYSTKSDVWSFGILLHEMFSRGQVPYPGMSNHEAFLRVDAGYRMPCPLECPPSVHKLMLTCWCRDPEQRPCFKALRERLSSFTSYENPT
UniProt P07949, sequence (whole entry, unmodified, looked up): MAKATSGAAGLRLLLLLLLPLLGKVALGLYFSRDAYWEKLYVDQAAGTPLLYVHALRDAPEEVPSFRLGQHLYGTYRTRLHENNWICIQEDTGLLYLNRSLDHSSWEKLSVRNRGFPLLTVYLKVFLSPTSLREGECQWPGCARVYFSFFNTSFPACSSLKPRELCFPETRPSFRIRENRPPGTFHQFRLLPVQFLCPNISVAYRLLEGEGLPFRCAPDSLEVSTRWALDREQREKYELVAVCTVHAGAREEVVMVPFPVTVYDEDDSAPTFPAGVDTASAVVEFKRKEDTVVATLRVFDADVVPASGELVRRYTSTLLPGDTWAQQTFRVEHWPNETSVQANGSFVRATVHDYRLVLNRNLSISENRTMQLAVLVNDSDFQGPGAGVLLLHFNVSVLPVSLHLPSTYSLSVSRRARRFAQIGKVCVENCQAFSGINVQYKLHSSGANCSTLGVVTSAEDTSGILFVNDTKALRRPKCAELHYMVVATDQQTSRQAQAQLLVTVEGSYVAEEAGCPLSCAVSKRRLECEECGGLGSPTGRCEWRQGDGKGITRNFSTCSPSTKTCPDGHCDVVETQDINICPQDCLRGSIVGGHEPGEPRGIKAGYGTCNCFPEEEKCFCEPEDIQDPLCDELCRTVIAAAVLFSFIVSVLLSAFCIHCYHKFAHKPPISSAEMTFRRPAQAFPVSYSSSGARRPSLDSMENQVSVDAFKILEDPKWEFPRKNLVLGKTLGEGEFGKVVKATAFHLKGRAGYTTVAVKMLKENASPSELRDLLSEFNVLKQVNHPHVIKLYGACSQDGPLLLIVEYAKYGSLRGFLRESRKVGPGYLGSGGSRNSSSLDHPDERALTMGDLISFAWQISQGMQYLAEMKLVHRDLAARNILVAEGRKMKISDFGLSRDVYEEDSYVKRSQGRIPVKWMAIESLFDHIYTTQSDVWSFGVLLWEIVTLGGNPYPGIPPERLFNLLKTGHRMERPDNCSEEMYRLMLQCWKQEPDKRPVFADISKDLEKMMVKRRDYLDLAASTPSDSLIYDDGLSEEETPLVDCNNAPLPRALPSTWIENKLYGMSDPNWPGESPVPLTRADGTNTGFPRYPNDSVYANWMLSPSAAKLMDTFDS
UniProt O75676, sequence (whole entry, looked up): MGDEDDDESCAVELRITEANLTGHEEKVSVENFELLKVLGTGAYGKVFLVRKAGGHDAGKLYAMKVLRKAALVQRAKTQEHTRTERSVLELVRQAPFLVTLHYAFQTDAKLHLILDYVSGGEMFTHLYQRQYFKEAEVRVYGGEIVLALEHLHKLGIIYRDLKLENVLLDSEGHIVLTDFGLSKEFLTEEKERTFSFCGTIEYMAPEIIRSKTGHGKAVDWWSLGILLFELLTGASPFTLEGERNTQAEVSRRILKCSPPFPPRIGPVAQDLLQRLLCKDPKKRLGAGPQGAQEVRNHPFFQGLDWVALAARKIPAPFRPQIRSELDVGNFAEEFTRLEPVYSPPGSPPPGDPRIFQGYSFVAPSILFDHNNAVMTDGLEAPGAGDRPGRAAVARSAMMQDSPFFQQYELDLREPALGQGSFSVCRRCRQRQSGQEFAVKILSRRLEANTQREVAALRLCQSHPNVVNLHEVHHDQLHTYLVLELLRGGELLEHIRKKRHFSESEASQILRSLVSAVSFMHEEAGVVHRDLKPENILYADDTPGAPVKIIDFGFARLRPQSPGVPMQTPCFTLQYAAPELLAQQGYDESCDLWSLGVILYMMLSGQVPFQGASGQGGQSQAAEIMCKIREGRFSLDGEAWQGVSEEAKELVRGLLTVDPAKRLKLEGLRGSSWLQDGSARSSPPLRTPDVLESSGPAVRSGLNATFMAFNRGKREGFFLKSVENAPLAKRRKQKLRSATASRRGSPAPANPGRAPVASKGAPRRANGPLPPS
UniProt Q02750, sequence (whole entry, looked up): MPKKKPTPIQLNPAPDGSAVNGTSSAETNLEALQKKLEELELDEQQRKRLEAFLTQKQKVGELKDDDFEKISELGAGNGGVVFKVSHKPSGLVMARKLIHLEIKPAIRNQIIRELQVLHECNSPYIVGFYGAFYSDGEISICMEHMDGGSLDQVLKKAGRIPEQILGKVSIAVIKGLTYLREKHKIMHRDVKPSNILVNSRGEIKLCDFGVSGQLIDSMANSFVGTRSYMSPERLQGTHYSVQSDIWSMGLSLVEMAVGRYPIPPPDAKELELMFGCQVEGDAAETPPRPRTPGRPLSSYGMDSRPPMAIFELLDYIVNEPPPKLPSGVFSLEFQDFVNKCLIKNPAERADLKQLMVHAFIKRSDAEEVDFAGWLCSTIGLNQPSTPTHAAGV

Block 1 — time: 6 days; endpoint: viability
SMILES: Cc1ncsc1-c1ccc(C(CO)NC(=O)C2CC(O)CN2C(=O)C(NC(=O)c2ccc(COc3c(-c4c(C)c(F)cc5[nH]ncc45)c(C4CC4)cc4c(N5CC6CC5CN6)nc(OC5CCOCC5)nc34)cc2)C(C)C)cc1 (centres unmarked)
cell line = ASPC1; test = cell growth or viability, ATP luminescence; setting = 0.1 µM; result = 72.5% and 69.1% and 63% and 66.1% and 39.5% and 73.5%
cell line = AsPC-1; test = CellTiter-Glo; setting = 10 µM; result = 5.1% and 4.02% and 4.93%
cell line = ASPC1; test = cell growth or viability, ATP luminescence; setting = 300 pM; result = 82.2% and 91.4% and 87.7% and 87.6% and 88.7%
cell line = ASPC1; test = cell growth or viability, ATP luminescence; setting = 10 nM; result = 90.2% and 86.9% and 94.6% and 89.6% and 81.4%
cell line = AsPC-1; test = CellTiter-Glo; setting = 3 nM; result = 87.3% and 86.5% and 85.8%
cell line = ASPC1; test = cell growth or viability, ATP luminescence; setting = 1 nM; result = 72.5% and 88% and 75.4% and 92.2% and 89.3% and 95.4%

Block 2 — observed: thermal unfolding; method: differential scanning fluorimetry; concentration: 5.5 µM; reading: higher = more unfolded; endpoint: SYPRO Orange fluorescence
Structure (SMILES): C[C@@H]1CN(c2ccc(-c3cc(C(=O)NCCOCCOCCOCCOCCNC(=O)/C=C/c4[nH]cc(C(=O)N[C@@H](CC(N)=O)c5ccc(F)c(Cl)c5)c4-c4ccc(Cl)cc4F)ccc3F)cc2NC(=O)c2c[nH]c(=O)cc2C(F)(F)F)C[C@H](C)N1C
DCAF1: DDB1- and CUL4-associated factor 1 (DCAF1, Homo sapiens, UniProt Q9Y4B6)
UniProt Q9Y4B6, sequence (whole entry, looked up): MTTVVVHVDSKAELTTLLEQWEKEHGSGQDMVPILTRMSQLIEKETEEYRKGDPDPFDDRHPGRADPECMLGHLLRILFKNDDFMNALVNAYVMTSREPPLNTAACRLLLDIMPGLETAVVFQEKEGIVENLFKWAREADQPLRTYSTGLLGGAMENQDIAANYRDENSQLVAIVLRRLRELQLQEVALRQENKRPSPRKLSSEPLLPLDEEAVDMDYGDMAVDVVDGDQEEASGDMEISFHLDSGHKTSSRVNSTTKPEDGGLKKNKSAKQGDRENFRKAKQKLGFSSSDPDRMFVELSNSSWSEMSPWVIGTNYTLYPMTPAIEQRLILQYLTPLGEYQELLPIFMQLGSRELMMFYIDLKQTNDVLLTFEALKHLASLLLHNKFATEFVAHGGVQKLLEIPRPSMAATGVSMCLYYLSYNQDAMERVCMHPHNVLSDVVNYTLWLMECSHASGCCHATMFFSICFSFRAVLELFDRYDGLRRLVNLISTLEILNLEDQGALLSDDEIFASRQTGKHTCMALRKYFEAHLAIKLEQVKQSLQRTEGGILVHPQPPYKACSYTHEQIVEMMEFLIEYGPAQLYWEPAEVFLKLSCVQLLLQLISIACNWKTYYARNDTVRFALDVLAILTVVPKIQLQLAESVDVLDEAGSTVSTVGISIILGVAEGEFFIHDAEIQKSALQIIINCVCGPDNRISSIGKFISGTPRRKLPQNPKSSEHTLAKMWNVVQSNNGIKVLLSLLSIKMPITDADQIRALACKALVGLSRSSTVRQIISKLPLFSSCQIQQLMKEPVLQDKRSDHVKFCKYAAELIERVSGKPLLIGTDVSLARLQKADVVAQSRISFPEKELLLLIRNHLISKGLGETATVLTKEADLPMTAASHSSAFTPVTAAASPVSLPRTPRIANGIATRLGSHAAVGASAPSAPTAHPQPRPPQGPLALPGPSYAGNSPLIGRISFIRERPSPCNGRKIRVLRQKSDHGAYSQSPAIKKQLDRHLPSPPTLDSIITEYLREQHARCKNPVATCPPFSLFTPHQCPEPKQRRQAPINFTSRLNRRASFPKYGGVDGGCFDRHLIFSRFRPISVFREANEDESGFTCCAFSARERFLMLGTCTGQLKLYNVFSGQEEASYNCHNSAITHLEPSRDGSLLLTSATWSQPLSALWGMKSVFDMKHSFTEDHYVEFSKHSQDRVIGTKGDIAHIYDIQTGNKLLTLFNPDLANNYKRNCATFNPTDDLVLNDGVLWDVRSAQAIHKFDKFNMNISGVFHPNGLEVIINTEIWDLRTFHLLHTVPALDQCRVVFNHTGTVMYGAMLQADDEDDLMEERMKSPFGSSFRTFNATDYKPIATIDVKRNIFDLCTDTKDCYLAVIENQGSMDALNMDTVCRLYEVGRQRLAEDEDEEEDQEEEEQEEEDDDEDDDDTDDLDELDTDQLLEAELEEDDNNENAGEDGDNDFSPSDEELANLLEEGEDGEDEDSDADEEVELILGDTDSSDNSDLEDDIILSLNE
WDR5: WD repeat-containing protein 5 (WDR5, Homo sapiens, UniProt P61964)
target = DCAF1; setting = 47 °C; result = 13900 a.u.
target = DCAF1; setting = 44.6 °C; result = 12800 a.u.
target = DCAF1; setting = 49 °C; result = 14700 a.u.
target = WDR5; setting = 61.41 °C; result = 15200 a.u.
target = DCAF1; setting = 61.21 °C; result = 46500 a.u.
target = DCAF1; setting = 72.41 °C; result = 52900 a.u.
target = WDR5; setting = 40.4 °C; result = 13800 a.u.
target = WDR5; setting = 59.41 °C; result = 15800 a.u.

Block 3 — SMILES: O=C(Nc1ccccc1)Nc1cccc(Oc2ccc3nccn3n2)c1; concentration: 1 µM; endpoint: remaining binding
target = Mitogen-activated protein kinase 1 (MAPK1, Homo sapiens, UniProt P28482); test = binding; result = 100%
target = Dual specificity mitogen-activated protein kinase kinase 1 (MAP2K1, Homo sapiens, UniProt Q02750); test = binding, competition with immobilised ligand; result = 100%
target = Serine/threonine-protein kinase 32C (STK32C, Homo sapiens, UniProt Q86UX6); test = binding; result = 100%
target = Protein-tyrosine kinase 6 (PTK6, Homo sapiens, UniProt Q13882); test = binding, competition with immobilised ligand; result = 100%
target = Fibroblast growth factor receptor 1 (FGFR1, Homo sapiens, UniProt P11362); test = binding, competition with immobilised ligand; result = 87%
target = Mitogen-activated protein kinase kinase kinase kinase 4 (MAP4K4, Homo sapiens, UniProt O95819); test = cell-free binding; result = 100%
target = Casein kinase I isoform gamma-3 (CSNK1G3, Homo sapiens, UniProt Q9Y6M4); test = binding; result = 98%
target = Tyrosine-protein kinase HCK (HCK, Homo sapiens, UniProt P08631); test = cell-free binding; result = 76%
target = Serine/threonine-protein kinase RIO1 (RIOK1, Homo sapiens, UniProt Q9BRS2); test = binding; result = 52%
target = Mitogen-activated protein kinase kinase kinase 19 (MAP3K19, Homo sapiens, UniProt Q56UN5); test = binding, competition with immobilised ligand; result = 13%
target = Leucine-rich repeat serine/threonine-protein kinase 2 (LRRK2, Homo sapiens, UniProt Q5S007, G2019S); test = binding; result = 39%
target = Ribosomal protein S6 kinase alpha-4, C-terminal kinase domain (RPS6KA4, Homo sapiens, UniProt O75676); test = binding, competition with immobilised ligand; result = 100%
target = Cyclin-dependent kinase-like 5 (CDKL5, Homo sapiens, UniProt O76039); test = binding; result = 98%
target = Inhibitor of nuclear factor kappa-B kinase subunit epsilon (IKBKE, Homo sapiens, UniProt Q14164); test = binding; result = 100%
target = Serine/threonine-protein kinase OSR1 (OXSR1, Homo sapiens, UniProt O95747); test = binding; result = 100%
target = LIM domain kinase 2 (LIMK2, Homo sapiens, UniProt P53671); test = binding, competition with immobilised ligand; result = 100%
target = Ephrin type-B receptor 2 (EPHB2, Homo sapiens, UniProt P29323); test = binding, competition with immobilised ligand; result = 97%
target = Proto-oncogene tyrosine-protein kinase receptor Ret (RET, Homo sapiens, UniProt P07949, M918T); test = binding; result = 73%
target = 5'-AMP-activated protein kinase catalytic subunit alpha-1 (PRKAA1, Homo sapiens, UniProt Q13131); test = binding, competition with immobilised ligand; result = 89%
target = Mitogen-activated protein kinase kinase kinase 9 (MAP3K9, Homo sapiens, UniProt P80192); test = binding; result = 100%
target = Activin receptor type-2B (ACVR2B, Homo sapiens, UniProt Q13705); test = binding, competition with immobilised ligand; result = 94%

Block 4 — observed: binding; method: competition with immobilised ligand; concentration: 1 µM; endpoint: remaining binding
Compound: COc1cc(-c2nc3ccc(C(=O)NCCCN(C)C)cc3n2C2CCC2)cc(OC)c1OC
target = Ribosomal protein S6 kinase alpha-4, N-terminal kinase domain (RPS6KA4, Homo sapiens, UniProt O75676); result = 87%
target = Mitogen-activated protein kinase 11 (MAPK11, Homo sapiens, UniProt Q15759); result = 88%
target = Mitogen-activated protein kinase 12 (MAPK12, Homo sapiens, UniProt P53778); result = 100%
target = Insulin receptor-related protein (INSRR, Homo sapiens, UniProt P14616); result = 92%
target = Serine/threonine-protein kinase PLK3 (PLK3, Homo sapiens, UniProt Q9H4B4); result = 99%
target = Serine/threonine-protein kinase pim-3 (PIM3, Homo sapiens, UniProt Q86V86); result = 84%
target = Serine/threonine-protein kinase 16 (STK16, Homo sapiens, UniProt O75716); result = 100%
target = Serine/threonine-protein kinase WNK3 (WNK3, Homo sapiens, UniProt Q9BYP7); result = 100%
target = LIM domain kinase 2 (LIMK2, Homo sapiens, UniProt P53671); result = 83%
target = Interferon-induced, double-stranded RNA-activated protein kinase (EIF2AK2, Homo sapiens, UniProt P19525); result = 92%
target = Protein-tyrosine kinase 6 (PTK6, Homo sapiens, UniProt Q13882); result = 80%
target = Serine/threonine-protein kinase D3 (PRKD3, Homo sapiens, UniProt O94806); result = 82%
target = Proto-oncogene tyrosine-protein kinase receptor Ret (RET, Homo sapiens, UniProt P07949, M918T); result = 71%
target = Casein kinase II subunit alpha (CSNK2A1, Homo sapiens, UniProt P68400); result = 100%
target = Dual specificity protein kinase CLK2 (CLK2, Homo sapiens, UniProt P49760); result = 83%

A few entries again (block 4):
target = Ribosomal protein S6 kinase alpha-4, N-terminal kinase domain (RPS6KA4, Homo sapiens, UniProt O75676); result = 87%
target = LIM domain kinase 2 (LIMK2, Homo sapiens, UniProt P53671); result = 83%
target = Casein kinase II subunit alpha (CSNK2A1, Homo sapiens, UniProt P68400); result = 100%
target = Protein-tyrosine kinase 6 (PTK6, Homo sapiens, UniProt Q13882); result = 80%
